Experimental data gathered from unrelated publications.
Parts stem from different laboratories: compare values within a part only. Positions count from the first letter of the parent shown.

Sample 1 — technique: RNA Bind-n-Seq; form: RNA; medium: in vitro; concentration: 365 nM; reference: no-protein control; direction: higher = stronger binding
Target: RNA binding protein fox-1 homolog 2, RRM domain, GST-SBP tag (RBFOX2, Homo sapiens, UniProt O43251-10, residues 100-194)
Notes: natural RNA segment, single round, ends assumed
All sequences stand within: GGGAGUUCUACAGUCCGACGAUC … UGGAAUUCUCGGGUGCCAA
Construct (chain): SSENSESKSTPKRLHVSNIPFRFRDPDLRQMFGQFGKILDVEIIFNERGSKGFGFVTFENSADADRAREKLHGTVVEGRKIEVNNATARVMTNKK
Sequence	RBNS enrichment (R)
GUGGUUCUAUUCUGAGCACCCCUGUUGCCUCUGACGACCCCCCCCCCACCAAAGGGAAGCAGAGAAGCCCCUGGCCAUGCACAUUGAGUAUGAUGAGCAAAAGGCCAGAA	0.256
UUAUGAGCUGAACAUAAAAAGUUUUGGCUGGCUUAUGUGAUUGAGGCCAUUAACACUGAUAAGUAUGAAUAUACAGAUAUGGCUUAGGUUUCUUCAAGAGGAAACAUAUU	0.834
CUUCUCUAAUGUGUAAGUGGAGCCUGAACUGCAGGGGCUCUUUAUAUUCCAAACAACCCAGGGUUAGCCUUGGCCUCGAUCCUGGCCUUGGCCUCCCUAGGCUAUAUCUG	0.304
AAGAGAACUGAGACUAAUGUAUUUUCCAAAAUUUCCUAAGGCUUUCCCCCGUUGUUUACAUGUUGAAAAGGAAAAUCACAAUCACUUGUAAAUGUGCCAUGCUCUGGUGG	0.629
ACCCACUCCCUACAGUCCUCAGACCAAGGAGGGGUUUGGGUAGUAGGCCCGAGCUGCAUUGCCGGCCUUCCUCGGGCCAACUGGCAGCCCAGGAGUGGGGAGGCUUUGGC	0.579
GGGAAAUAUUACUUAUCCAUCAGGUUUCUCUUUGGUUUUUGUAAACGGAGAGGACAGUUCUUAGUCCAGUAAAAAUAUGCAGAUUGUAUGUAAUGAAUUUUUGUAAACAA	0.939
UGAGUAGUGUGACAGAGUUUGCCUCUUAAAAUUGUUUUGCUAAUAAGUCAGAAGUUUAAAAUGUGUUAUAGUUUGCUAAAAAAAAAUCAAAUUAACUGCAUAUAAAAUGG	0.621
GCUCCCACUCUCGUGGGUGCAAAAGCGGCAGCAAAAAGCAGCCAUUUACUUGGGUACUUAAGAGUUAUUGUAUUAAUAAAAAGUUAUUGACUUGUCCUUUGAGAGCCUUC	0.412

Sample 2 — technique: RNA Bind-n-Seq; form: RNA; medium: in vitro; concentration: not given; reference: input RNA pool; direction: higher = stronger binding
Target: RING finger protein unkempt homolog, zinc fingers 1-6, GST-SBP tag (UNK, Homo sapiens, UniProt Q9C0B0, residues 30-357)
Sequence of UniProt Q9C0B0 (30-357, looked up): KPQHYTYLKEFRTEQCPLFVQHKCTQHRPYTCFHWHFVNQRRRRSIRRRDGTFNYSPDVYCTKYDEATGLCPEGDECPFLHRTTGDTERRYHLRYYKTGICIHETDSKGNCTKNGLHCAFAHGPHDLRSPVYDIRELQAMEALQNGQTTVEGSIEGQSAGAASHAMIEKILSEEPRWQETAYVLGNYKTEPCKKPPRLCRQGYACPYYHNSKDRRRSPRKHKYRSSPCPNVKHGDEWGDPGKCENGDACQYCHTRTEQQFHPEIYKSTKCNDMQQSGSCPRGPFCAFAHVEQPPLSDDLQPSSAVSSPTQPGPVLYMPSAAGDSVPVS
Notes: RNA with constant flanks, human-mouse chimeric sites, ends assumed
All sequences stand within: GGGAGUUCUACAGUCCGACGAUC … CAACAGAGGAUUGAGCAUCA
Sequence	bound/input enrichment [ratio]
AUAAAGGCUAUGUUGAGUGGCCCAGGUCAGUUUGCUGAGAACGAAACCAACGAGGUCAAUUUUAGAGAGAUCCCCUCACAUGUGCUAUCAAAAGUGUGCAUGUAUUUUACCUACAAGGUC	0.158
GAUAAGAAAAGCUUGUUGGAGACCCGCUUGCAUGUCACUGGCAGAGACCUGAGGUGUCAAAUAGCUGAAACCUUUGGAUUUCAAGAAAAUUACAUCAAGAUCGUAAUAAAUAAGAAACAG	0.309
GUAUUUGUGCGCUCCCCACUCGUGUUUUUAAGUGUAUUUUUAUAAGAUACAUGUAUUUGUAAUAGAUCUUUUGUUACAUAAUGCUGAAAUGCUACUGGAGAUUAUGAAAAAUGUUUCAAU	0.412
AAAGAACUACUGAGGCAAGGCAGCAAAUUUAGGAGAGACAUUUCAACACUAUUAAUAGAGUUAGGAUUCCAAAUUAAAAAGAAAACUAAGACAUUAUAUAUCAACAAAGCCAAUGUGUGG	13.2
CACAGAGCAGCACCUACCCCCUCCUCCUUUCCACACCUGCAAACCCUUUUGCCUGGGCUGAAUAUUUAGUGUAAUUACAUCUCAGCUUUGAGGGCUCCUGUGGCAAAUUCCCGGAUUAAA	0.636
UAAGUUAUUUUGUACAGCUUUGUAAAUUCUUAACAUUUUUAUAUUGCACAUUUUAUGUUGUUUGGGUAAUUUGGUUCAUUAAGUACAAAACCAAAUAAAUGAACAUCUUUUUCAGUAAUU	0.791
UCAUUUUUCUCUUUUCUUUCUUUCCUUUAGGAAAAGCCUAAAGAUUAGGUUGUAAGAAAAAUAGAAGCCAUGUUUCGAAGACCUGUGUUACAGGUAUUUCGUCAGUUUGUAAGACAUGAG	0.469
GUGACUGGUGUUAAGAUUUCCCCUCAGAAAAGAACUGCAGUAGUCACCAUAAUUCCAUCUGUGGUGAGUGCCAGUCAGAUUGUGGAGCUGGUCCCAGAACUCAGUUUAGACAUGGGAACU	0.474

Sample 3 — technique: protein-binding microarray; form: double-stranded DNA, one strand shown; medium: in vitro; concentration: 2540 nM top; notes: 60-bp whole probe; added: salmon DNA 0.4 mg/ml; reference: random background probes; direction: higher = stronger binding; all sequences stand within: GCCTAGCAC … GTCTTGATTCGCTTGACGCTGCTG
Target: Interferon regulatory factor 3, full length, phosphomimetic (IRF3, Homo sapiens, UniProt Q14653, residues 1-427, S386D/S396D/S398D/S402D/T404D/S405D)
Construct (chain): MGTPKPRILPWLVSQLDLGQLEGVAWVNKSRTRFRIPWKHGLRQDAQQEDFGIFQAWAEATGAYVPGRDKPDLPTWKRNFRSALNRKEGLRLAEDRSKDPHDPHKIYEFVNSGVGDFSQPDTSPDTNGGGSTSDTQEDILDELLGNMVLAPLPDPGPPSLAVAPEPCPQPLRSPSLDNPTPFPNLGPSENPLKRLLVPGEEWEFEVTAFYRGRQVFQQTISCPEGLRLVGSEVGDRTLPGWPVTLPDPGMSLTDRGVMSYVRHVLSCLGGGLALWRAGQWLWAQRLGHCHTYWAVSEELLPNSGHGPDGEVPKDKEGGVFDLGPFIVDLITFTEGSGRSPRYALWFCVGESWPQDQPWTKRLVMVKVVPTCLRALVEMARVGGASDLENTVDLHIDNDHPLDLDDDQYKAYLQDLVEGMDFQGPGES
Sequence	fitted relative affinity [z-score]
GTAGGTTTCGGTTCCGGTTAGTGCTAG	10.9
ATAGGTATCCTTATCCTTTAGTGCTAG	5.5
TCATGTCCCCCTTTTATACTGTGCTAG	2.05
TCTATTTTCTGAATGTCTTCGTGCTAG	1.98
TTAGGTATCGGTATCGGGTAGTGCTAG	4.58
TCAATTTTGTCCTCCCCTACTGTGCTA	0.147
GACGATCTCAGTATCGAGCCGTGCTAG	0.7
TTAGATTTCGGGTTTCGAATAGTGCTA	3.08
TCAGGACTGGGGACTGGGTTAGTGCTA	-1.04
TTAGAACTGTGTTTCGATTAGTGCTAG	1.98
TGACTTTTGAGAGATGGAAACGTGCTA	0.433
TTAGATTTCAGTTCCGTTTAGTGCTAG	4.11
GACGGTATCGGGTATAGGGACGTGCTA	1.42
TTAGCTATCCTTATCCTTTAGTGCTAG	2.87
GCCCTTATCCAATCAGAATTGTGCTAG	2.01
AGGGAGGTCTCTCCCGACCTGTGCTAG	-0.672
AGTGTTTGCCCTATTTAAAAGTGCTAG	1.2
GGGAGATGACTAAGAGGGGTGTGCTAG	-1.05
TCACCCCTCAGATCTGCCACTGTGCTA	0.158

Sample 4 — target: CCNE1, cyclin fold, Cln2 fusion (human); technique: yeast growth competition, sequencing; medium: yeast; notes: weak parent motif; reference: not given; direction: higher = stronger binding
Starting sequence: RB1 docking peptide (human); PKPLKKLRFDIEG
Substitution	normalised enrichment score
PKPTKKLRFDIEG [L4T]	0.0533
PKPLSKLRFDIEG [K5S]	1.18
PNPLKKLRFDIEG [K2N]	0.0949
PKPWKKLRFDIEG [L4W]	0.236
PKPLKKLRFDIEV [G13V]	0.672
PKPLKKLRFDIEH [G13H]	0.374
PKPLKKVRFDIEG [L7V]	0.599
PKWLKKLRFDIEG [P3W]	1.87
PKPLHKLRFDIEG [K5H]	0.47
PKPLKKSRFDIEG [L7S]	0.354
PKPLKKLRFDIEC [G13C]	-0.263
PKPLKKLRFGIEG [D10G]	1.78
PKPLKKLRTDIEG [F9T]	0.215
PKPQKKLRFDIEG [L4Q]	-0.0376
PKPLKKLKFDIEG [R8K]	0.427
PKLLKKLRFDIEG [P3L]	0.498
PKPLKKLRFDIIG [E12I]	2.01
QKPLKKLRFDIEG [P1Q]	1.12
PKPLKKLRFHIEG [D10H]	0.758
PKPLKKLRFDSEG [I11S]	0.472
PKPLKKTRFDIEG [L7T]	0.000478
PKPLKKLRMDIEG [F9M]	0.658
PKPLKKLRFDLEG [I11L]	1.39
PKPLKKLRFDFEG [I11F]	0.333
PAPLKKLRFDIEG [K2A]	-0.218

Excerpt of the above (sample 4):
Substitution	normalised enrichment score
PAPLKKLRFDIEG [K2A]	-0.218
PKPLHKLRFDIEG [K5H]	0.47
PKPLKKLKFDIEG [R8K]	0.427
PKPLKKLRFDIEC [G13C]	-0.263
PKPLKKLRTDIEG [F9T]	0.215
PKPLKKLRMDIEG [F9M]	0.658
PKWLKKLRFDIEG [P3W]	1.87
PKPQKKLRFDIEG [L4Q]	-0.0376
PKPLKKLRFDLEG [I11L]	1.39
PKPLKKLRFHIEG [D10H]	0.758
